{"data": "Assay results pooled from the literature", "note": "Parts stem from different laboratories: compare values within a part only."}
{"data": "Series 1", "target": "Sal-like protein 4, full length isoform B (SALL4, Homo sapiens, UniProt Q9UJQ4-2, residues 1-616)", "method": "universal PBM", "molecule type": "double-stranded DNA, one strand shown", "medium": "in vitro", "tested at": "not given", "setting": "8-mer, flanks averaged, mean of replicates", "direction": "higher = stronger binding"}
{"Sequence": "ACACAGTA", "E-score": 0.197}
{"Sequence": "GATTGTAA", "E-score": 0.232}
{"Sequence": "CAGGTCCG", "E-score": -0.312}
{"Sequence": "AAGAAATA", "E-score": 0.357}
{"Sequence": "ATTACAGA", "E-score": 0.281}
{"Sequence": "ACGAACAT", "E-score": 0.206}
{"Sequence": "ATTCAAAT", "E-score": 0.338}
{"Sequence": "AATGATCC", "E-score": 0.108}
{"Sequence": "CAAATCGC", "E-score": -0.0947}
{"Sequence": "GGTATTAA", "E-score": 0.177}
{"Sequence": "CGCAGCCG", "E-score": -0.334}
{"Sequence": "AGATTCGC", "E-score": 0.0374}
{"Sequence": "CCAGAGGG", "E-score": -0.332}
{"Sequence": "AGGCCTGA", "E-score": -0.123}
{"Sequence": "GCTCCCCA", "E-score": -0.265}
{"Sequence": "AGACCCTC", "E-score": -0.209}
{"data": "Series 2", "target": "RNA binding protein fox-1 homolog 2, RRM domain, GST-SBP tag (RBFOX2, Homo sapiens, UniProt O43251-10, residues 100-194)", "method": "RNA Bind-n-Seq", "molecule type": "RNA", "medium": "in vitro", "tested at": "365 nM", "setting": "natural RNA segment, single round, ends assumed", "reference": "no-protein control", "direction": "higher = stronger binding", "shared flanks, not repeated": "GGGAGUUCUACAGUCCGACGAUC … UGGAAUUCUCGGGUGCCAA", "Residues (chain)": "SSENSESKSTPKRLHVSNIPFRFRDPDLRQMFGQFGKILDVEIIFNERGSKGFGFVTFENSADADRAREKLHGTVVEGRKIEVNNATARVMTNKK"}
{"Sequence": "CUUCCCUUAAGGAGCAAGAAGCGCCUUCUCUGUCAGGUAAGGGGAUAAGCUCUGCUGGAUCCAAGGGAUCCAGGCUAAGGGCGUUCAGUCUGCUGCAAACCAGUCUGGCC", "RBNS enrichment (R)": 0.19}
{"Sequence": "UCCUUCCCACAGUACCUUAAGAUUGCCCAGCCUCCCUGCUCUAGUGGCUGGGGCUCCCUUACCAGAGGGGCAAGUCUGGCCCCUCAGUCCUUAACUGGAAAGUGACCCUC", "RBNS enrichment (R)": 0.747}
{"Sequence": "CAUAUGAAUAACCAUUUAUAUGUGUUUUGCUUAAAGUAUUCCAAUGCCUAUUUUCCAAGCACAGUUCUGCCCCCCGGUUGACUUUUAUGCCACGUGUGCUUCAUGAUGGA", "RBNS enrichment (R)": 0.418}
{"Sequence": "UCUUUUCAGAGUUUCGAAGGAUUAAUGACUUCCUCAGCGCCCUUGCUGGCGGGCUGAGGGUGACAGUCACGUCCGUUUCUUCUGUAUUAGAAGGCUGCGGUGAUUCAAUU", "RBNS enrichment (R)": 0.217}
{"Sequence": "GACACCCAUACCUGUAUAUACAUGCUCGAGAAAGCUGUAAUGUGAAAAUCAUGUUCUCUAUUUAUGACUCUUCCUAGGGCAAUGUGUCUGGACAGAUUGUAAGAGUAAGU", "RBNS enrichment (R)": 0.276}
{"Sequence": "UAAACAUUGUGCCAAGAAACGAUUUGUGGGAUUCAUGUCCCGAAACCAUUAAAUCUAUUGUUUGGAAAGUCUGCAGUCCUGAGGAGGGCUUGCUCACUGGACACCCACAG", "RBNS enrichment (R)": 0.347}
{"Sequence": "UUCCAGGAUCUAAAUGAAUGGGAAUUUAUAAUUCCUUUCAUAGACUCAAACCUGAAAGCAGAAAUUUUUAGUAGUUGAGUUGCUUUAAGUGAAUUUUAACAAAUAUGACA", "RBNS enrichment (R)": 0.469}
{"Sequence": "GCACCCCCUACUGUGUGCUCCUCUUGUGCACCUACUGUGUGCUUCUUCCGGGGCUUGUUGCCAUUCCCCUAGAUGCUGGAGAAAGCCUGGGCCAGCCUGUAGCCUGACCG", "RBNS enrichment (R)": 0.566}
{"Sequence": "UAAACACUGAUCUGGAAAUUGGUCCUGUGAUGCACGUGCUUUGCCCUGGAUGCACCUGAACUCGUCCCCCUCGUCGAGGGGCAGGAGGGCAUGGACAUGGGCUUCUUCAC", "RBNS enrichment (R)": 0.773}
{"Sequence": "AGGGCAUUUGUAGAAUUAGUGACCCACUGCAUGUCUGUCCCCAAGGCCGGGAAAAGAGACAGGCAGCUCCUCAGCCUGAGAACGCCGCCGAUGCGACCAAGUGUCAGGCU", "RBNS enrichment (R)": 0.447}
{"Sequence": "CGCGCCCAGUCCAGGAUCUGCCUCCUAUCAGGGAUCCCAACUCUGAAUUUCCUGCCACUAACAUACACACAGUACCAGCCUUAAAACAAAAGACUAGGUACUGUAAGCAU", "RBNS enrichment (R)": 0.283}
{"Sequence": "GACAUUGGCAUUCAAAUGUCUAUAUCUUGUUACUUACAAAAUAAAAAACAGAUUAAUUAGUGGCUUUAAAUUGUAGUUAUAUCAGUGUAUAUACACGAGGGGAACUGUAU", "RBNS enrichment (R)": 0.343}
{"data": "Series 3", "target": "Fragile X messenger ribonucleoprotein 1, C-terminal low-complexity region (Fmr1, Mus musculus, UniProt P35922)", "method": "RNA Bind-n-Seq", "molecule type": "RNA", "medium": "in vitro", "tested at": "200 nM", "setting": "whole 134-nt RNA, ends assumed", "added": "150 mM LiCl", "reference": "input library", "direction": "higher = stronger binding", "library": "7-deaza-guanosine replaces G", "shared flanks, not repeated": "GGGAGUUCUACAGUCCGACGAUC … UGGAAUUCUCGGGUGUCAAGG"}
{"Sequence": "CACAGACAACACGCACCCACACAGACACAGAGGGAAGAAAUUGGGAUGGGGACAGGGUGCACAGCAGGGCGGGGUAGGACCCCAGCCCCU", "log2 enrichment": -0.97}
{"Sequence": "GUCCUGUGCUACACAUCGUAUGUACCGAAUCGGGCCCCCCGGCCCCCCGGCCCCCCGGGAAAGUAUUAUGUUACGCCGUUCGGAUCUGCA", "log2 enrichment": 1.07}
{"Sequence": "CAAGUCCUGUGCUACACAUCGUAUGUACCGAAUCGGUUUGGGUUUGGGGUUUGGGAAAGUAUUAUGUUACGCCGUUCGGAUCUGCACUUC", "log2 enrichment": -1.55}
{"Sequence": "CCUGUGCUACACAUCGUAUGUACCGAAUCAAAUUUUUAAACCCCCCCAAAUUUUUUUAAAAAAGUAUUAUGUUACGCCGUUCGGAUCUGC", "log2 enrichment": 1.24}
{"Sequence": "CACAGACAACACGCAAACACACAGACACAGAGGGAAGGGGUUGGGAUGGGGACAGGGUGCACAGCAGGGCGGGGUAGGACCCCAGCCCCU", "log2 enrichment": 0.911}
{"Sequence": "CAAGUCCUGUGCUACACAUCGUAUGUACCGAAUCAAACCCAAACCCAAAUUUAAAAAAGUAUUAUGUUACGCCGUUCGGAUCUGCACUUC", "log2 enrichment": 0.943}
{"Sequence": "CAAGUCCUGUGCUACACAUCGUAUGUACCGAAUCGGGGUUGGGUUGGGGUUGGGGAAAGUAUUAUGUUACGCCGUUCGGAUCUGCACUUC", "log2 enrichment": 0.0458}
{"Sequence": "UGCAUGUGCACUGAUAGGCCAAGGCCAGCUGAACCAGGCCAUGAAAAUCCUACAAAAAGCUGAAGGUUGGAAGUUUGUUAAACUUAUCUG", "log2 enrichment": -0.831}
{"Sequence": "AGUCCUGUGCUACACAUCGUAUGUACCGAAUCGGGUGGGAAAAAAAGGGUUUUUGGGAAAGUAUUAUGUUACGCCGUUCGGAUCUGCACU", "log2 enrichment": -1.97}
{"Sequence": "CCUCAAGUCCUGUGCUACACAUCGUAUGUACCGAAUCGGUUUGGUUUGGUGGAAAGUAUUAUGUUACGCCGUUCGGAUCUGCACUUCCAG", "log2 enrichment": -0.925}
{"Sequence": "GCAGGAAGUAAAAACAAAUGGAAAUGCUUCGGAUAGUGGCAGGGGUGGGGGUUGCUAAGGAAAGGGUAAAAUGGGAGUGGGUAAAGAGUU", "log2 enrichment": 1.71}
{"data": "Series 4", "target": "Interferon regulatory factor 7, full length, phosphomimetic (IRF7, Homo sapiens, UniProt Q92985, residues 1-503, S101K/S471D/S472D/S475D/S476D/S477D/S483D/S484D/S487D)", "method": "protein-binding microarray", "molecule type": "double-stranded DNA, one strand shown", "medium": "in vitro", "tested at": "250 nM", "setting": "60-bp whole probe", "added": "salmon DNA 0.4 mg/ml", "reference": "random background probes", "direction": "higher = stronger binding", "shared flanks, not repeated": "GCCTAGCAC … GTCTTGATTCGCTTGACGCTGCTG", "Target sequence (chain)": "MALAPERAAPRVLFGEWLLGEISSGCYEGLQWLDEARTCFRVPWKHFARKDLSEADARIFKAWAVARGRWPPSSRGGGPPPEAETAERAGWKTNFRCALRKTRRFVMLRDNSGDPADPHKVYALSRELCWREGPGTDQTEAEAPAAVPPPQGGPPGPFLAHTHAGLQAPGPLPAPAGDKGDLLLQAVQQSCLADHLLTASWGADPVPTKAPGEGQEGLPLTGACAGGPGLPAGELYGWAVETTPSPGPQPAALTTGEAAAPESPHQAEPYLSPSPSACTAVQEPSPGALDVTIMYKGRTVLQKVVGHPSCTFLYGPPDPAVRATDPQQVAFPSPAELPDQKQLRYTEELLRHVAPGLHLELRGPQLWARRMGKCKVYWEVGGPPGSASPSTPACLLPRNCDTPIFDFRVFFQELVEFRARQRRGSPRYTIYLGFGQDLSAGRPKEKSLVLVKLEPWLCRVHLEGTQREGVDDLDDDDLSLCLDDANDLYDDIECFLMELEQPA"}
{"Sequence": "TTAGTTATCGGGTTTCGGTTAGTGCTA", "log fluorescence": "6.79 z-score"}
{"Sequence": "TTCTCAACCAGTTTTCTTTTCGTGCTA", "log fluorescence": "1.67 z-score"}
{"Sequence": "TGAGGTTTCGACTTTCGGTTAGTGCTA", "log fluorescence": "11.2 z-score"}
{"Sequence": "GACGGACTGGGCCTCGGGACGTGCTAG", "log fluorescence": "-0.529 z-score"}
{"Sequence": "TTATGTCTCGGTCTCGGTTAGTGCTAG", "log fluorescence": "2.02 z-score"}
{"Sequence": "TTAGGTCTCGGAATCGGTTAGTGCTAG", "log fluorescence": "2.98 z-score"}
{"Sequence": "TTAAATATCGGGACTGGATTAGTGCTA", "log fluorescence": "0.143 z-score"}
{"Sequence": "GACGTTATCGGGTATCGAGACGTGCTA", "log fluorescence": "0.195 z-score"}
{"Sequence": "GTCATTTTCTCTTATTCTAAGTGCTAG", "log fluorescence": "1.86 z-score"}
{"Sequence": "TGAGGTATCCTTCTCCTTTAGTGCTAG", "log fluorescence": "0.139 z-score"}
{"Sequence": "GACGGTATCGACTTTCGGCACGTGCTA", "log fluorescence": "0.883 z-score"}
{"Sequence": "GACGGACTGGATCTCGGGACGTGCTAG", "log fluorescence": "-0.532 z-score"}
{"Sequence": "TTAGAACTGACTTTCGATTAGTGCTAG", "log fluorescence": "1.38 z-score"}
{"Sequence": "TTAGGTATCGGGTTTCGGGTAGTGCTA", "log fluorescence": "4.6 z-score"}
{"Sequence": "AACGAACTGAGTTTCGAGACGTGCTAG", "log fluorescence": "3.62 z-score"}
{"Sequence": "TTAGGACTGGGGTTTCGGATAGTGCTA", "log fluorescence": "2.46 z-score"}
{"Sequence": "GACGGTATCGGTCTCGGGACGTGCTAG", "log fluorescence": "0.546 z-score"}
{"Sequence": "GACGGACTGGGACTGCGGACGTGCTAG", "log fluorescence": "-0.771 z-score"}
{"Sequence": "TAAGGTATCGGGTTTCGGTTAGTGCTA", "log fluorescence": "7.5 z-score"}
{"Sequence": "GACGAACTGAGACCGGAGACGTGCTAG", "log fluorescence": "-0.0816 z-score"}
{"Sequence": "TTTGGAGTCATTCTCAACCCGTGCTAG", "log fluorescence": "-0.551 z-score"}
{"Sequence": "GACGATTTCGACTTTCGGGACGTGCTA", "log fluorescence": "1.52 z-score"}
{"Sequence": "TCATATTTTTTTGTAATACTGTGCTAG", "log fluorescence": "0.821 z-score"}
{"Sequence": "TTAGGACTGGGGTTCGGTTAGTGCTAG", "log fluorescence": "1.01 z-score"}
{"Sequence": "GACGGTATCGGTATCGGAACGTGCTAG", "log fluorescence": "2 z-score"}
{"note": "Some of these lines once more (series 4):"}
{"Sequence": "GACGGTATCGACTTTCGGCACGTGCTA", "log fluorescence": "0.883 z-score"}
{"Sequence": "GACGGACTGGATCTCGGGACGTGCTAG", "log fluorescence": "-0.532 z-score"}
{"Sequence": "TTAGAACTGACTTTCGATTAGTGCTAG", "log fluorescence": "1.38 z-score"}
{"Sequence": "TTAGGTATCGGGTTTCGGGTAGTGCTA", "log fluorescence": "4.6 z-score"}
{"Sequence": "AACGAACTGAGTTTCGAGACGTGCTAG", "log fluorescence": "3.62 z-score"}
